# Published values collected from several papers.
# A part holds a random share of what one study measured.
# UniProt Q6XUX3, sequence (whole entry, looked up): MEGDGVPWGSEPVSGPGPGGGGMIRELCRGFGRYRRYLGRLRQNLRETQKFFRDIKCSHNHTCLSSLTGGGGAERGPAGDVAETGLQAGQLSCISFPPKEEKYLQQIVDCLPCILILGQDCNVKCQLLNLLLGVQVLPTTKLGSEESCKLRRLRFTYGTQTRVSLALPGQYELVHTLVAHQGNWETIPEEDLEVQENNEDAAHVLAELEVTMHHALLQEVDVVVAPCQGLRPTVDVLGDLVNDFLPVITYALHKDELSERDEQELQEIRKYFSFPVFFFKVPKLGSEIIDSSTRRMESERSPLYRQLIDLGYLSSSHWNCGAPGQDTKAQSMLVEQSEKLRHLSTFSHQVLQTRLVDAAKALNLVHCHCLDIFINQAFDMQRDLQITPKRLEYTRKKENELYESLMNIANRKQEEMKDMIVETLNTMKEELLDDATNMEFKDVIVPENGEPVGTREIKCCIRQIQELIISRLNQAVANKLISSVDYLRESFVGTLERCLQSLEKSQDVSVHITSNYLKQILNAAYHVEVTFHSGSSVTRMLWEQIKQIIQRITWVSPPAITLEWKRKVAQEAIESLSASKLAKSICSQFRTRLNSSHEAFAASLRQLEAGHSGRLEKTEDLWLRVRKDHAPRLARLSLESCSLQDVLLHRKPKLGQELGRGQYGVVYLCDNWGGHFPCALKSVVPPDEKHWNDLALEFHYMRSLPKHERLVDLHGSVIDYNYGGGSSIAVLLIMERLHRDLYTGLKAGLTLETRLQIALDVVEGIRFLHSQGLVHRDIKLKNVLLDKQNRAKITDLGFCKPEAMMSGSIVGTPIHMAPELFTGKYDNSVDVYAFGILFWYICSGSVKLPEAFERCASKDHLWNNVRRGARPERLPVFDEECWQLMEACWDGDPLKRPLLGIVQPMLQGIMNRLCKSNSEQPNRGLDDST

# Series 1 — method: RNA Bind-n-Seq; form: RNA; sample: in vitro; concentration: not given; baseline: input RNA pool; reading: higher = stronger binding
# Target: RING finger protein unkempt homolog, zinc fingers 1-6, GST-SBP tag (UNK, Homo sapiens, UniProt Q9C0B0, residues 30-357)
# Setting: RNA with constant flanks, human and mouse sites, ends assumed
# Residues (chain): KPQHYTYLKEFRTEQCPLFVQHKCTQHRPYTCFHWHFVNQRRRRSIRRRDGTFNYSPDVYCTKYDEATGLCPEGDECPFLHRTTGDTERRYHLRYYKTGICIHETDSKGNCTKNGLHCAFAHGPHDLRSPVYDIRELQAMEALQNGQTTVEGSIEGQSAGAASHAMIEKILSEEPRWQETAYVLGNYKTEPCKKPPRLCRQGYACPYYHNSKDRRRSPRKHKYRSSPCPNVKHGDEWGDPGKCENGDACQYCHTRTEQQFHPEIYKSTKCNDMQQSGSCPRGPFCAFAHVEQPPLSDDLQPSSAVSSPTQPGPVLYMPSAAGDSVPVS
Strand,bound/input enrichment [ratio]
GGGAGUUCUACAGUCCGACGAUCGCCUUAGGUUGGGGGAUACUGUCAGGGGGAGAUUCCCUCUGUGUCUUUUCCUGAGUUGGAGCCACUUUUCAUUUCUGCACAGCCUCAAAGGUGGACAAGGUAAUAAAUAGCUUUGGAAAACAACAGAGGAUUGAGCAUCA,0.277
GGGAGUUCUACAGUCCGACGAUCCUGAUGAAAUUGCUAGAUGAGGCUCUAAAGGAGGUAGAUCAGAUUGAAUUGAAACUGAGCAGUUAUGAGGAAAUGCUCCAAAGUGUAAAAGAACAAAUGGAUCAGAUCUCUGAAAGCAACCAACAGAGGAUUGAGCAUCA,0.257
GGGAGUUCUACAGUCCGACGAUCUGAGAGUUCAGAACAUAUGGCAGCUGUUUGUGAAGCUAUUUUUUACUGACAAAUUUUGAUAAGUUUGGCUACUGUAAUGGAAAGUAGGCUUUCUUAAGCACUGACUACAUUUGGAUUCUUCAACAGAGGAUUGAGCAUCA,0.0884
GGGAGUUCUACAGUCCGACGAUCUGGUCAAUAUUCCUAGGAAUGGGAACAUUACUCUGGGGCCAGCUUAUUUCAACAAUUCCAACUAGCCGUUUAAAAUUCCUCAAAGAAGCUGGUCAUGGAACACAAAAGGAAGAAAUACCUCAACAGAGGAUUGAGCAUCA,1.02
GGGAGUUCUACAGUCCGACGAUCCGGGCGGCUGGAGACAGUGGAGUCCGUCACGCUGGCGGUGGUGUACAUAUUCAGCCCCGGUACAGGGAGUUUCCCCAGCUUACCCGGUCCCAGGUGAUCCAGGGUGAGUUCUUAAGCUCACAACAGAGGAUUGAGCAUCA,0.0658
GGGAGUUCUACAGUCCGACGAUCCUCUGUAAACAGUUUGGUUCUUAGUCCUUCUCUUGUACAAAUGAUGUACUUUGAAGACCGUUAGUGUAUAACAGAGUUGUUUGUUUCCUCUUUGAUUUUAAACAGAGAAAAUAAAAGGAGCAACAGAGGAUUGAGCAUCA,0.689
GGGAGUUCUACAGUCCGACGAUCUGUGAACAGAAAAGAGGCAAAGAUAAUAAAGCUAUUAUUGCAUCAAAUAUCAUGUACAUAGUAGGUCAAUACCCACGUUUUUUGAGAGCUCACUGGAAAUUUCUGAAGACUGUAGUUAACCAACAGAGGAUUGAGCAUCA,0.376
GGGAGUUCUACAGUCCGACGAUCAUAAGCCCUGAUUCUGGUUUUUAACAAGCUGUUUGUUCAUCUAUAUUUAGUUUAAAAUAGGUAGUAUUAUCUUUCUGUACAUAGUGUACAUUACAACUAAAAGUGAUGGAAAAAUACUGUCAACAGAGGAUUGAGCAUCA,5.77

# Series 2 — method: universal PBM; form: double-stranded DNA, one strand shown; sample: in vitro; concentration: not given; reading: higher = stronger binding
# Target: Sal-like protein 4, full length isoform B (SALL4, Homo sapiens, UniProt Q9UJQ4-2, residues 1-616)
# Setting: 8-mer, flanks averaged, mean of replicates
# Residues (chain): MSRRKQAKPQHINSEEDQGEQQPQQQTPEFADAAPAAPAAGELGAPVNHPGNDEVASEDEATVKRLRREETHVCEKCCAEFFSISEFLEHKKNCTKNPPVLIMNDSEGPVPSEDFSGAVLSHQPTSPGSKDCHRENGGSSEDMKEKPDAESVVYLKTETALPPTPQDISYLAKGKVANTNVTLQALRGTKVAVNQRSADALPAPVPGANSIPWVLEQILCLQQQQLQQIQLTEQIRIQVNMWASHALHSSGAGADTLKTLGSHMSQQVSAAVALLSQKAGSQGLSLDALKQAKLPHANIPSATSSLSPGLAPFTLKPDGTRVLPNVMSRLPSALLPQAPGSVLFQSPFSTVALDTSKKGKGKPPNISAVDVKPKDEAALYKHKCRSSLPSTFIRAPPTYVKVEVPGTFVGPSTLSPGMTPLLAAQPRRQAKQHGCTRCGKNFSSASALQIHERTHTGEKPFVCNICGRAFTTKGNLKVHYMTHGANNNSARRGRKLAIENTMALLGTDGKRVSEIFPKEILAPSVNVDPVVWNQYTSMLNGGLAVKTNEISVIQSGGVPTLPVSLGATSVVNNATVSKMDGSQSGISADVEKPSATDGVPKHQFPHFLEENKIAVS
Strand,E-score
CACGTGGG,-0.226
ACTGGGCT,-0.253
TCATGCCA,0.129
ATCAGTGG,-0.121
CGATGTAG,-0.0115
AGCAGACC,-0.151
AATACGAA,0.28
ACTTAGAA,0.0153

# Series 3 — method: RNA Bind-n-Seq; form: RNA; sample: in vitro; concentration: 365 nM; baseline: no-protein control; reading: higher = stronger binding
# Target: RNA binding protein fox-1 homolog 2, RRM domain, GST-SBP tag (RBFOX2, Homo sapiens, UniProt O43251-10, residues 100-194)
# Setting: natural RNA segment, single round, ends assumed
# Target sequence (chain): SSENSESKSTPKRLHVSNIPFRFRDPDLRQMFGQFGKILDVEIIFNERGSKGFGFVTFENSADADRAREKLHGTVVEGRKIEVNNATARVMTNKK
Strand,RBNS enrichment (R)
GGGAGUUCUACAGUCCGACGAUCAGGAAUUUCCUGAGUUUGCAGGAGACAUGAGAGCAGUUUUUAGCGAGUAUUUUAGUGGGAAGUUGCCAACUUUUUAAGAAUGAGCAGUUGACAAGGGCCAGAGCCUGUCCUGGAAUUCUCGGGUGCCAA,2
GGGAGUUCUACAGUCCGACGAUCGGAGAUCUGAGGUCACUGCUGUGAGCUGGGAGAACUGCUGUGUACCUCUUGCUGCCAGCACCCAACAGCCUUGCCGUGGGGACCUUGGAAACCUGGCUUUGCUCUGGACAUGGAAUUCUCGGGUGCCAA,0.291
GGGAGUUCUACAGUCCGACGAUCCUUUAAAAUGAGAAUCUGGUGUUACUGUAUUUUAUCGUUUUCAAUAAAACUUCUUAAGUGUUUUGGACUUUUGAGAUAUUUGUAUUACUCCACUUAAAUAAUGAAAUCAGUGGAAUUCUCGGGUGCCAA,0.934
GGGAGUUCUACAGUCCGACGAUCUCAUGUCCGCCUAAUUGAUGUAGUAUGAAACCCUGCAUCUUUAAGGAAAAGAUUAAAAUAGUAAAAUAAAAGUAUUUAAACUUUCCUGAUAUUUAUGUACAUAUUAAGAUUGGAAUUCUCGGGUGCCAA,0.488
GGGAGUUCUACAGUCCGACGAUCUGACAUUUGAUUUCCAGUGUAUUUAAAUUACUCCGUGGUAAAUUUCAUUGUCUUUUCCUGUGUAAAUGUUAAAUGACAAUACCAUCGGUGAAGGCCCUCCACAGUGGACAUGGAAUUCUCGGGUGCCAA,0.398
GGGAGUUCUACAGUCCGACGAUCACAUAUUCUUGGGUACUCUAUUUAUGUAUCUUUCAUGCCUUGAAAAUCUGAAGGUUAAUCCAAACUCACAUGUUUUAGCAUAUUUGAGAAAAAAAAACUACCUUCAAUAUUGGAAUUCUCGGGUGCCAA,0.602
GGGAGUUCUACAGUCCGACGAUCUGUUUACACCUGGUGUCCAAUUUUGUAUUUUAAAAUGUAAUCCAUUUUUACUUCAGCUCAUCCAAAAGCAGCCAGCAGACCGGUUGACUGAGACCGGUCUGUGGCUGUGGUGGAAUUCUCGGGUGCCAA,0.28
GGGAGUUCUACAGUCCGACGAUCACUACUUUCAGCUUCCUGCUCCACCCCUGGCUUGCAAGCCCUCUUUUUGGCCCCUAUUGAGGAUGAAAUGUCUCUCAUUUAGUAUAAACAGUAACAGCCCACGGCAGUGUUGGAAUUCUCGGGUGCCAA,0.396

# Other studies, line by line
SMILES,target,assay,setting,how to read,endpoint,value
C[S+]([O-])c1ccc(-c2nc(-c3ccncc3)c(-c3ccc(F)cc3)[nH]2)cc1 (stereo not shown),"Dual serine/threonine and tyrosine protein kinase (DSTYK, Homo sapiens, UniProt Q6XUX3)","enzyme activity, inhibitor",0.5 µM,baseline: control,remaining activity,100%

# Excerpt of the above (series 2):
Strand,E-score
ACTTAGAA,0.0153
ACTGGGCT,-0.253
